Measurements pooled from the literature.
Lines come from different studies, so protocols differ. Numbers after ± are the reported error.
Sequence of UniProt P11229 (whole entry, looked up): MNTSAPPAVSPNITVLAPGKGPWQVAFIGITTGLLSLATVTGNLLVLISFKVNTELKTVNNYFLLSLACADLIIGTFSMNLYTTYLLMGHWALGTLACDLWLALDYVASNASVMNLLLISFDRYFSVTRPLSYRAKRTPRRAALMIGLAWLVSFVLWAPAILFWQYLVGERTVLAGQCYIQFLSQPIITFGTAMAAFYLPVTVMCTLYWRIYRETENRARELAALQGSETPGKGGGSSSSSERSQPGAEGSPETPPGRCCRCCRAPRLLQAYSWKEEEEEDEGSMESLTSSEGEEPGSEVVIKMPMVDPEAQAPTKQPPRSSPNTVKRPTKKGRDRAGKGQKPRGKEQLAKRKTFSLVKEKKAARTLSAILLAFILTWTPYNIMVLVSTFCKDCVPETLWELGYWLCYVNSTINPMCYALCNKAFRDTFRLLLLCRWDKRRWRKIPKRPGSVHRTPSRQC
Sequence of UniProt P63079 (whole entry, looked up): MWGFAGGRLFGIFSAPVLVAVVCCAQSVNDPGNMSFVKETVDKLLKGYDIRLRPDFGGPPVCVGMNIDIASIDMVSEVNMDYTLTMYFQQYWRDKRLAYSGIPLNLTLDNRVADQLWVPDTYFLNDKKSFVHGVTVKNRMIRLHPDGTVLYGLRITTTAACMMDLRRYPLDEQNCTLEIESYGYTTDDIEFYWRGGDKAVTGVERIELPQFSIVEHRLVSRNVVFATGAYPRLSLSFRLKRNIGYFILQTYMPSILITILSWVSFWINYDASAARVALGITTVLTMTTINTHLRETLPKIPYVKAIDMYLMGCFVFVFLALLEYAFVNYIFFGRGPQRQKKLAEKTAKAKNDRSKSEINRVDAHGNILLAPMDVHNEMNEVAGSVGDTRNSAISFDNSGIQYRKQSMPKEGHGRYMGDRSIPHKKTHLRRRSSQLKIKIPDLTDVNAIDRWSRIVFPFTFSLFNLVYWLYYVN
Sequence of UniProt P00433 (whole entry, looked up): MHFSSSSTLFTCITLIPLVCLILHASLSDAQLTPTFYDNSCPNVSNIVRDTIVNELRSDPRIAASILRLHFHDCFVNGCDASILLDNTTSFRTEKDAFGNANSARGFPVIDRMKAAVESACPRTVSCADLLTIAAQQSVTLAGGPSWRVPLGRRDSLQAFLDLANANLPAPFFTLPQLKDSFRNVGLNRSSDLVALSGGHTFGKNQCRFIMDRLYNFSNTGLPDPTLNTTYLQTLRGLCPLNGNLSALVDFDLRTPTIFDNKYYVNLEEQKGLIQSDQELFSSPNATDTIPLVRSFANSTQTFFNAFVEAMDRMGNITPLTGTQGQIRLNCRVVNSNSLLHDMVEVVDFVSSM
Sequence of UniProt O14744 (whole entry, looked up): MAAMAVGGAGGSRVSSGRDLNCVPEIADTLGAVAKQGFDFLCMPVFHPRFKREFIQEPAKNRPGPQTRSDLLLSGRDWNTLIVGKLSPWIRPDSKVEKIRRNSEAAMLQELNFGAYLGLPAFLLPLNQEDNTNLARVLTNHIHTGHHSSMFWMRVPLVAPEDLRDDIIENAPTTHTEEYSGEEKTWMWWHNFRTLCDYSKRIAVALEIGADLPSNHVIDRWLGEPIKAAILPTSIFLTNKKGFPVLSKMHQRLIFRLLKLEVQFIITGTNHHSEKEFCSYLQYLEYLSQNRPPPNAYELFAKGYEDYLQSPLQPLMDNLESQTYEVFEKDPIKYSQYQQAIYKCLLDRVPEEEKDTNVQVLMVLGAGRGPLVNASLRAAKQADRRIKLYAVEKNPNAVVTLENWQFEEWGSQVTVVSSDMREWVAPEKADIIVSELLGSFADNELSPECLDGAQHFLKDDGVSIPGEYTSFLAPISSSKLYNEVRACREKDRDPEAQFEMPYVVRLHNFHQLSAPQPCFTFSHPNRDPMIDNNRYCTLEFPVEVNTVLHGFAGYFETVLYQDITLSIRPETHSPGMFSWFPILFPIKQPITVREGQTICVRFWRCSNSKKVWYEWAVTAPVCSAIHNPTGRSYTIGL
Sequence of UniProt P16442 (whole entry, unmodified, looked up): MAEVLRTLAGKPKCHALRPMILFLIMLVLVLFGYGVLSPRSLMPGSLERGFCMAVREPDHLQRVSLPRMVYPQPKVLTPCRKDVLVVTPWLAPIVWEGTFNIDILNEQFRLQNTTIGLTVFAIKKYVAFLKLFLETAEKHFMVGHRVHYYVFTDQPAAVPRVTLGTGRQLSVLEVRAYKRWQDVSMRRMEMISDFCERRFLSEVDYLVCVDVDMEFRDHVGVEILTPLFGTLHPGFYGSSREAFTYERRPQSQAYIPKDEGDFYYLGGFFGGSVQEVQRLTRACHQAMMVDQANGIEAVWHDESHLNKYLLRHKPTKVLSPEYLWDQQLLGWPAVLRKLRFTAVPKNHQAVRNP
Sequence of UniProt P30191 (whole entry, looked up): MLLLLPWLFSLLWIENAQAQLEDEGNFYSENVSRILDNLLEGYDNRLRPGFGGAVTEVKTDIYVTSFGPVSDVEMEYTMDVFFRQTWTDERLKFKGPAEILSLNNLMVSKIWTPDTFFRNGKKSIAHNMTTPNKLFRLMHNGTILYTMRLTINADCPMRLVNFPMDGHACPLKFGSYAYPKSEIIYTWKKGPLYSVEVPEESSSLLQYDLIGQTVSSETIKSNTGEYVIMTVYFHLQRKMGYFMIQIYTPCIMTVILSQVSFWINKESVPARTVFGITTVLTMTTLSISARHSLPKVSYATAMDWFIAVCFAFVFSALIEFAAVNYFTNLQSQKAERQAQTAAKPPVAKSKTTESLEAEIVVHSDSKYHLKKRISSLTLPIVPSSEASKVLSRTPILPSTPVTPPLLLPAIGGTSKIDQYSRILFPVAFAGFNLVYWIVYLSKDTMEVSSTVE
Sequence of UniProt Q92731 (whole entry, looked up): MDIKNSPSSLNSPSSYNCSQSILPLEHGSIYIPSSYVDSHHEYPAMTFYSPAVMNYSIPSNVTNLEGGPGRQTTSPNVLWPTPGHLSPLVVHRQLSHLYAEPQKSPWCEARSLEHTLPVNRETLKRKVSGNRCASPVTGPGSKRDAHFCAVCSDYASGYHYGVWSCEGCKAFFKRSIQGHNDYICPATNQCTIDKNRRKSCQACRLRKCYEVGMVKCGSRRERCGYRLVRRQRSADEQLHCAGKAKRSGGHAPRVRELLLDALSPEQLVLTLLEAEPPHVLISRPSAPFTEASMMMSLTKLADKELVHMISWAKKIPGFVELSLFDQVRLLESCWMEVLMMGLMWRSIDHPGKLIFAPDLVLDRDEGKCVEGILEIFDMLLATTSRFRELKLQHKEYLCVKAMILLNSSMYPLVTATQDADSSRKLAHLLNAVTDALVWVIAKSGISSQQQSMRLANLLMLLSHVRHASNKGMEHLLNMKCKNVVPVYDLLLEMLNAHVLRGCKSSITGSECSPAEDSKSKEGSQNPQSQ
Sequence of UniProt P16050 (whole entry, looked up): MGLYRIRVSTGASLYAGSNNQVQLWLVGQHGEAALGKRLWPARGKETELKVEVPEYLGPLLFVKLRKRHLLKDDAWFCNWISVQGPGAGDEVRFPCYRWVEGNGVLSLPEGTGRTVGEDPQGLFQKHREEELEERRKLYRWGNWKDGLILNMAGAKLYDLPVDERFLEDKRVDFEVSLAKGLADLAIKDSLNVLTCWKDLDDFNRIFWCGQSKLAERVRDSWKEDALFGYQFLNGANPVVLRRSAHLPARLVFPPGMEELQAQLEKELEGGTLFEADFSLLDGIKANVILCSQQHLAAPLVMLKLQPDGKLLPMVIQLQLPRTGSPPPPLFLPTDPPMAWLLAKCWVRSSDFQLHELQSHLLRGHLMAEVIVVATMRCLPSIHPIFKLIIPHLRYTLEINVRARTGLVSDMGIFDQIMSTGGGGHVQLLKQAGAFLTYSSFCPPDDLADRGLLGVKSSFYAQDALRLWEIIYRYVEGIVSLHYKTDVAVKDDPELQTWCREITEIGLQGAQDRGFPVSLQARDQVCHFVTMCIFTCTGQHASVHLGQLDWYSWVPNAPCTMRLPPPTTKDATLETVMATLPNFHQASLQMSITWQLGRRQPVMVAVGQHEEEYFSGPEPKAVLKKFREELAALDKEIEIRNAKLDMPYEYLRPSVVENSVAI
Sequence of UniProt P50391 (whole entry, looked up): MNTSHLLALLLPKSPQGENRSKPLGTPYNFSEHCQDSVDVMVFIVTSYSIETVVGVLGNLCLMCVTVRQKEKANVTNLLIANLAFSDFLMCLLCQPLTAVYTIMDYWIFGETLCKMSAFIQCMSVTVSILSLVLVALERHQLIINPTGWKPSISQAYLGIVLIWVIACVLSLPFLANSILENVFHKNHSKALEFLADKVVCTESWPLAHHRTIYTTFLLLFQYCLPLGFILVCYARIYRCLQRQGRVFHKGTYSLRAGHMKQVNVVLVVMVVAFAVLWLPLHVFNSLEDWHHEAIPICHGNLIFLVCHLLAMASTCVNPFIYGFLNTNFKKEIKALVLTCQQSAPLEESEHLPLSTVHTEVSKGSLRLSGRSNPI
Sequence of UniProt P35372 (whole entry, looked up): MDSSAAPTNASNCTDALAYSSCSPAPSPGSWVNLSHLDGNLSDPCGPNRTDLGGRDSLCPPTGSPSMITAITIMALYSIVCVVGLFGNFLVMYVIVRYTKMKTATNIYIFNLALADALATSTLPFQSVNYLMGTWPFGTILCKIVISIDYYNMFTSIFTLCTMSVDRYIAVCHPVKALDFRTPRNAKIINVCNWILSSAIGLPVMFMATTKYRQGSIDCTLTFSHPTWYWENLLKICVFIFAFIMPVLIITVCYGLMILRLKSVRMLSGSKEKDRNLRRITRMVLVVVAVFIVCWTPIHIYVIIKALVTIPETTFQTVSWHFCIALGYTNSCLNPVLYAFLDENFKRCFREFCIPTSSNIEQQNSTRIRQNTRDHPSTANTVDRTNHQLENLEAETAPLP

With CCCCCCOc1ccc(C(=O)OCCN2CC=CCC2)cc1 the dissociation half-time was 4.4 ± 0.4 h (CHRM1 (Homo sapiens, UniProt P11229); recovery of [3H]NMS binding after washing; membranes; 100 µM).
CCc1c(-c2ccc(O)cc2)nn(-c2ccc(O)cc2)c1-c1ccc(OCCN2CCCCC2)cc1 — result for “relative binding affinity”: 0.49 ± 0.13 (ESR2 (Homo sapiens, UniProt Q92731); competitive radioligand binding; concentration not given; reference: estradiol, higher = stronger binding).
Nc1nc2cc(CC[C@H]3C[C@@H](n4ccc5c(N)ncnc54)[C@H](O)[C@@H]3O)ccc2cc1Br gave a koff of less than 0.000396 s⁻¹ (Protein arginine N-methyltransferase 5, with WDR77 (PRMT5, Homo sapiens, UniProt O14744); binding, SPR).
For O=C(NCc1ccsc1)N1CCN(C(Cc2cccc(O)c2)c2ccccc2)CC1 (stereo not drawn), the Emax was 104% (OPRM1 (Homo sapiens, UniProt P35372); cAMP, agonist; CHO-K1; reference: DAMGO).
CN1CCN(CC(=O)N2N=C3/C(=C/c4ccccc4)CCCC3C2c2ccccc2)CC1 (mixture of isomers) gave a maximal activation of 150% (ALOX15 (Homo sapiens, UniProt P16050); enzyme activity, activator; pH 7.4, 1% DMSO, stirring, added: arachidonic acid 50 µM).
With CC(=O)N[C@H](CCCNC(=N)N)C(=O)N[C@@H](Cc1ccc(O)cc1)C(=O)N[C@@H](CCCNC(=N)NC(=O)NCCCCN)C(=O)N[C@@H](CC(C)C)C(=O)N[C@@H](CCCNC(=N)N)C(=O)N[C@@H](Cc1ccc(O)cc1)C(N)=O the intrinsic activity was 0.56 (NPY4R (Homo sapiens, UniProt P50391); β-arrestin-2 recruitment, agonist; HEK293T; concentration not given, unit not given; reference: 1 µM human pancreatic polypeptide).
C=CCCCCCCO[C@@H]1O[C@H](CO)[C@@H](O[C@@H]2O[C@H](CO)[C@H](O)[C@H](O)[C@H]2O[C@@H]2O[C@@H](C)[C@@H](O)[C@@H](O)[C@@H]2O)[C@H](O)[C@H]1NC(C)=O has a kon of 720000 M⁻¹ s⁻¹ (ABO (Homo sapiens, UniProt P16442, G235S/G268A/L266M/R176G); methyl-TROSY NMR titration lineshape analysis; apo enzyme).
CCC(=O)N(C)c1ccc(Cl)c(Cl)c1 — result for CAR3 activation: “no effect” (constitutive androstane receptor CAR3 (human); activator, reporter gene; 0.32 to 100 µM).
For CCc1nc2cc3ccccc3cc2cc1C(=O)N1CCC[C@H]1C(=O)N[C@@H](C/C=C\C[C@H](NC(=O)[C@@H]1CCCN1C(=O)c1cc2cc3ccccc3cc2nc1CC)C(=O)N[C@@H](CCCCN)C(=O)NCCCN)C(=O)N[C@@H](CCCCN)C(=O)NCCCN, the residence time was 745 s ((CCUG)10 RNA; SPR).
With O=c1cc(-c2ccc(O)c(-c3c(-c4ccc(O)cc4)oc4cc(O)cc(O)c4c3=O)c2)oc2cc(O)cc(O)c12 the Hill coefficient was 2.94 (PRXC1A (Armoracia rusticana, UniProt P00433); substrate, Hill kinetic model; product formation, added: hydrogen peroxide NG).
For CC(C)CCC[C@@H](C)[C@H]1CC[C@H]2[C@@H]3CC=C4C[C@@H](OS(=O)(=O)O)CC[C@]4(C)[C@H]3CC[C@]12C, the Hill slope was 1.3 ± 0.5 (Prothrombin (F2, Homo sapiens, UniProt P00734); enzyme activity, inhibitor; 0 (unit not given), pH 7.4, 37 °C, no Tween, added: Spectrozyme TH).
The modulation of COc1ccc(-n2nc3c4ccccc4[nH]cc-3c2=O)cc1 is reported as roughly 700% (Gamma-aminobutyric acid receptor subunit alpha-6/beta-3, with gamma-2 subunit (Gabra6/Gabrb3, Rattus norvegicus, UniProt P30191+P63079); ion current, modulator, two-electrode voltage clamp; Xenopus laevis oocytes; 10 µM, α6β3γ2, added: GABA EC3-5).

For quick reference, copied from above:
CN1CCN(CC(=O)N2N=C3/C(=C/c4ccccc4)CCCC3C2c2ccccc2)CC1 (mixture of isomers) gave a maximal activation of 150% (ALOX15 (Homo sapiens, UniProt P16050); enzyme activity, activator; pH 7.4, 1% DMSO, stirring, added: arachidonic acid 50 µM).
With CC(=O)N[C@H](CCCNC(=N)N)C(=O)N[C@@H](Cc1ccc(O)cc1)C(=O)N[C@@H](CCCNC(=N)NC(=O)NCCCCN)C(=O)N[C@@H](CC(C)C)C(=O)N[C@@H](CCCNC(=N)N)C(=O)N[C@@H](Cc1ccc(O)cc1)C(N)=O the intrinsic activity was 0.56 (NPY4R (Homo sapiens, UniProt P50391); β-arrestin-2 recruitment, agonist; HEK293T; concentration not given, unit not given; reference: 1 µM human pancreatic polypeptide).
